Measured values of several laboratories.
Compare with care: the assays were run in different laboratories.
Organism: Staphylococcus aureus

Compound	assay	test system	setting	MIC
CC[C@H](C)[C@H](NC(=O)[C@H](CC(C)C)NC(=O)[C@H](CCCNC(=N)N)NC(=O)[C@@H](N)CCCNC(=N)N)C(=O)N[C@@H](CCCNC(=N)N)C(=O)N[C@@H](CCCCN)C(=O)N[C@@H](CC(C)C)C(=O)N[C@@H](CCCCN)C(=O)NCC(=O)N[C@@H](CC(C)C)C(=O)N[C@@H](CCCCN)C(=O)N[C@@H](CCCCN)C(=O)N[C@@H](Cc1ccc(O)cc1)C(=O)N[C@@H](CC(C)C)C(=O)N[C@@H](Cc1ccc(O)cc1)C(=O)N[C@@H](Cc1ccccc1)C(=O)N[C@@H](CCCCN)C(=O)N[C@@H](CC(C)C)C(=O)N[C@@H](CCC(N)=O)C(=O)N[C@@H](CC(C)C)C(=O)N[C@@H](CC(C)C)C(=O)N[C@@H](CCCCN)C(=O)N[C@@H](CCCCN)C(N)=O		CCARM 3089, methicillin-resistant, Mueller-Hinton broth	24 h	8 µM
CN[C@H](CC(C)C)C(=O)N[C@H]1C(=O)N[C@@H](CC(N)=O)C(=O)N[C@H]2C(=O)N[C@H]3C(=O)N[C@H](C(=O)N[C@H](C(=O)O)c4cc(O)cc(O)c4-c4cc3ccc4O)[C@H](O)c3ccc(c(Cl)c3)Oc3cc2cc(c3O[C@@H]2O[C@H](CO)[C@@H](O)[C@H](O)[C@H]2O[C@H]2C[C@](C)(N)[C@H](O)[C@H](C)O2)Oc2ccc(cc2Cl)[C@H]1O		CRB, PBP4 deletion		2 µg/mL
Cc1cc(Nc2cc(N3CCN(C)CC3)nc(Sc3ccc(NC(=O)C4CC4)cc3)n2)n[nH]1		NCTC 8325		> 30 µM
CC(C)C[C@@H](NC(=O)CNC(=O)[C@@H](CCCCN)NC(=O)[C@@H](CC(C)C)NC(=O)[C@@H](CCCCN)NC(=O)[C@@H](CCCNC(=N)N)NC(=O)[C@@H](CC(C)C)NC(=O)[C@@H](CC(C)C)NC(=O)[C@@H](CCCNC(=N)N)NC(=O)[C@H](N)CCCNC(=N)N)C(=O)N[C@H](CCCCN)C(=O)N[C@H](CCCCN)C(=O)N[C@H](Cc1ccc(O)cc1)C(=O)N[C@H](CC(C)C)C(=O)N[C@H](Cc1ccc(O)cc1)C(=O)N[C@H](Cc1ccccc1)C(=O)N[C@H](CCCCN)C(=O)N[C@H](CC(C)C)C(=O)N[C@H](CCC(N)=O)C(=O)N[C@H](CC(C)C)C(=O)N[C@H](CC(C)C)C(=O)N[C@H](CCCCN)C(=O)N[C@H](CCCCN)C(N)=O		KCTC 1621, Mueller-Hinton broth	added: 150 mM NaCl	4 µM
Cc1ccc2[nH]c3c(c2c1)CCCC3NCCc1ccc(Br)cc1 (stereo not drawn)	broth microdilution	HG001		4 µg/mL
CS(=O)(=O)Nc1ncn(-c2cc(F)c(COc3ccc(OS(=O)(=O)F)cc3)c(F)c2)n1		MRSA		> 50 µM
CCCCCCC#Cc1cncc(-c2nnc(SCc3cc([N+](=O)[O-])cc([N+](=O)[O-])c3)n2CCCN)c1	broth microdilution	Mu50 MRSA VISA	18 to 24 h, 37 °C	8 µg/mL
CC[C@H](C)[C@H](NC(=O)[C@H](CCCCN)NC(=O)[C@H](CCCCN)NC(=O)[C@H](Cc1ccccc1)NC(=O)[C@@H](NC(=O)[C@@H](NC(=O)[C@H](CCCNC(=N)N)NC(=O)[C@H](Cc1ccccc1)NC(=O)[C@@H](NC(=O)[C@H](CCCCN)NC(=O)[C@H](CCCCN)NC(=O)[C@@H](N)CCSC)[C@@H](C)CC)C(C)C)[C@@H](C)CC)C(=O)N[C@@H](CC(C)C)C(=O)N[C@@H](CCCCN)C(=O)N[C@@H](CCCNC(=N)N)C(=O)N[C@@H](CC(C)C)C(=O)N[C@H](C(=O)N[C@H](C(=O)O)C(C)C)[C@@H](C)CC	broth microdilution	ATCC 25923	5% fetal bovine serum	8 µg/mL
CC[C@H](C)[C@H](N)C(=O)N[C@@H](CC(C)C)C(=O)NCC(=O)N[C@H](CCCNC(=N)N)C(=O)N[C@H](C(=O)N[C@@H](Cc1c[nH]c2ccccc12)C(=O)N[C@@H](CCCCN)C(=O)NCC(=O)N[C@H](C(=O)N[C@@H](CCCCN)C(=O)N[C@@H](CC(=O)O)C(=O)N[C@H](C(=O)N[C@@H](CC(C)C)C(N)=O)[C@@H](C)CC)[C@@H](C)CC)[C@@H](C)CC	broth microdilution	ATCC 25923, Mueller-Hinton broth	16 h, 37 °C	6.25 µM
CC[C@H](C)[C@H](NC(=O)[C@H](CCCCN)NC(=O)[C@H](CCCCN)NC(=O)CNC(=O)[C@H](CCCCN)NC(=O)[C@H](CC(C)C)NC(=O)[C@H](CCCCN)NC(=O)[C@H](CCCNC(=N)N)NC(=O)[C@@H](NC(=O)[C@H](CC(C)C)NC(=O)[C@H](CCCNC(=N)N)NC(=O)[C@@H](N)CCCNC(=N)N)[C@@H](C)CC)C(=O)N[C@@H](Cc1ccc(O)cc1)C(=O)N[C@@H](CC(C)C)C(=O)N[C@@H](Cc1ccc(O)cc1)C(=O)N[C@@H](Cc1ccccc1)C(=O)N[C@@H](CCCCN)C(=O)N[C@@H](CC(C)C)C(=O)N[C@@H](CCC(N)=O)C(=O)N[C@@H](CC(C)C)C(=O)N[C@@H](CC(C)C)C(=O)N[C@@H](CCCCN)C(=O)N[C@@H](CCCCN)C(N)=O		KCTC 1621, Mueller-Hinton broth	added: 4.5 mM KCl	32 µM
CC(=O)NC[C@H]1CN(c2ccc(N3CCOCC3)c(F)c2)C(=O)O1		MRSA strain 4		0.5 µg/mL
CC[C@H](C)[C@H](NC(=O)CN)C(=O)N[C@@H](CC(C)C)C(=O)N[C@@H](C)C(=O)N[C@@H](C)C(=O)N[C@H](C(=O)N[C@@H](CCCCN)C(=O)N[C@@H](C)C(=O)N[C@H](C(=O)N[C@@H](C)C(=O)N[C@@H](CCCCN)C(=O)N[C@@H](C)C(=O)N[C@@H](C)C(=O)NCC(N)=O)[C@@H](C)CC)[C@@H](C)CC		ATCC 29213, Mueller-Hinton broth	12 h, 37 °C	8 µg/mL

For quick reference, copied from above:
Compound	assay	test system	setting	MIC
Cc1ccc2[nH]c3c(c2c1)CCCC3NCCc1ccc(Br)cc1 (stereo not drawn)	broth microdilution	HG001		4 µg/mL
CS(=O)(=O)Nc1ncn(-c2cc(F)c(COc3ccc(OS(=O)(=O)F)cc3)c(F)c2)n1		MRSA		> 50 µM
